Measurements gathered from unrelated publications.
Parts stem from different laboratories: compare values within a part only.
Sequence of UniProt P11388 (whole entry, looked up): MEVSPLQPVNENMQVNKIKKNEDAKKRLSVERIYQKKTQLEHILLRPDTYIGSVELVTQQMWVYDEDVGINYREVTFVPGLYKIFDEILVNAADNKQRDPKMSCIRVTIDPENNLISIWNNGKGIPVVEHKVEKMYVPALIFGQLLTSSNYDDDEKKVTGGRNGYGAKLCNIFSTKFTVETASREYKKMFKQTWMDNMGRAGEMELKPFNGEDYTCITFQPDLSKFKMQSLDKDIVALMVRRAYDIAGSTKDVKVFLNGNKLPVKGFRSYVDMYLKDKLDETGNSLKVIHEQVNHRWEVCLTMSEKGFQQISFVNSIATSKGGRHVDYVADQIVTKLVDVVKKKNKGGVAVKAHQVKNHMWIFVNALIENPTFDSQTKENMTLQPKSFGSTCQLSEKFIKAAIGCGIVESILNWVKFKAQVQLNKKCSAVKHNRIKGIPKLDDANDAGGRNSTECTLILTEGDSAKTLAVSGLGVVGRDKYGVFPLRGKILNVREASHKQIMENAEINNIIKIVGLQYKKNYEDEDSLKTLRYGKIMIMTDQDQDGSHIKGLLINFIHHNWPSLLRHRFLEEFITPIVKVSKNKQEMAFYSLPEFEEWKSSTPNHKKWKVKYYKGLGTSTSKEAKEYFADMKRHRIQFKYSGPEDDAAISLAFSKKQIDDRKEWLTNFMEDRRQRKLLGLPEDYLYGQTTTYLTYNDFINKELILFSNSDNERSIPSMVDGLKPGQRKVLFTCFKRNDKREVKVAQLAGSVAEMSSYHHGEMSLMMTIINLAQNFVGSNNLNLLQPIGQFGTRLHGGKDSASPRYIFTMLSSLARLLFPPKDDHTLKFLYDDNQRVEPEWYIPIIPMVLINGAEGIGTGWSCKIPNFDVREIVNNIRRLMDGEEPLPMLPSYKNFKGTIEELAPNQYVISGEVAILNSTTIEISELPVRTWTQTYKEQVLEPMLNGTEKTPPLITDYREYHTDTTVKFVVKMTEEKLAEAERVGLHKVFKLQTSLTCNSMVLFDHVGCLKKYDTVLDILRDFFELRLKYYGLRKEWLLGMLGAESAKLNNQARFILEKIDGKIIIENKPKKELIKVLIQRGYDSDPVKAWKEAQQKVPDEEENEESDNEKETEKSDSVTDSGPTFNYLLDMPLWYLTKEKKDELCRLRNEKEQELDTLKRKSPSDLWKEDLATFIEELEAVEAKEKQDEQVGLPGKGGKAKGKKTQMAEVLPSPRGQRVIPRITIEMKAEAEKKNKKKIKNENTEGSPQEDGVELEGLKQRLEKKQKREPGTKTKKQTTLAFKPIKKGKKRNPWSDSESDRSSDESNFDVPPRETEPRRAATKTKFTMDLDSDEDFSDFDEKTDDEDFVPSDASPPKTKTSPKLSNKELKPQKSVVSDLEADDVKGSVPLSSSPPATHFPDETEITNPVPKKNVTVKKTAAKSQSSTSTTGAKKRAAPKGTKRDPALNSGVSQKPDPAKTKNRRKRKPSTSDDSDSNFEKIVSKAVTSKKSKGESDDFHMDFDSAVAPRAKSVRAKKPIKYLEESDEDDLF

Block 1
Target: Replicase polyprotein 1ab, nsp14 (rep, Severe acute respiratory syndrome coronavirus 2, UniProt P0DTD1)
Mode: inhibitor
COc1ccccc1CNC(=O)c1cc(S(=O)(=O)N2CCC(C)C2)c(C)n1C (stereo not drawn) has an IC50 of 570 nM.
With Cc1c(S(=O)(=O)N2CCC(C)CC2)cc(C(=O)NC2Cc3ccccc3C2)n1C the IC50 was 40 nM.
CCc1c(S(=O)(=O)N2CCC(C)CC2)cc(C(=O)NCc2ccccc2OC)n1C gave an IC50 of 1650 nM.
The IC50 of Cc1c(S(=O)(=O)N2CCc3nn(C)cc3C2)cc(C(=O)NCc2cccnc2N2CCCC2)n1C is reported as 160 nM.

Further values, each from its own experiment
COC(=O)Nc1c(N)nc(-c2nn(Cc3ccccc3F)c3ncc(F)cc23)nc1N: “Cmax at steady state” 348 ng/mL (humans, plasma; 10 mg once daily, phase I DDI study, without warfarin).
CC1COc2ccccc2N1C(=O)C(Cl)Cl (stereo not drawn) has an intrinsic clearance of 500 µL/min/mg (cytosolic carboxylesterase; substrate depletion; rhesus monkey, male, liver cytosol; 5 µM, pH 7.4, without glutathione).
N#CCC1CCN(c2nc(Nc3ccc(N4CCC(O)CC4)cc3)c3c(=O)[nH]ncc3n2)CC1 — result for “GIF level difference”: 1.1 (vs placebo, Olink multiplex; human, serum; 20 mg, day 15, unit not given; reference: placebo).
COc1cc([C@@H]2c3cc4c(cc3[C@@H](O[C@@H]3O[C@@H]5CO[C@@H](C)O[C@H]5[C@H](O)[C@H]3O)[C@H]3COC(=O)[C@H]23)OCO4)cc(OC)c1O has an inhibition of 92.2% (TOP2A (Homo sapiens, UniProt P11388); DNA decatenation, inhibitor, gel-based decatenation; 15.6 µM).
For Fc1ccccc1Cc1nc(-c2nc(C(F)(F)F)n[nH]2)cn2ccnc12, “subjects with adverse events” read 35.7% (refers to: ALL; healthy humans; oral, 10 mg, fasted, single dose).

Repeated from above (block 1):
The IC50 of Cc1c(S(=O)(=O)N2CCc3nn(C)cc3C2)cc(C(=O)NCc2cccnc2N2CCCC2)n1C is reported as 160 nM.
